Measured values from different studies.
Lines come from different studies, so protocols differ. “And” joins repeats or separate records; there may be more than shown. ± gives the spread as reported.

`COc1cccc(OC)c1-c1cc(C(=O)NC2(C(=O)O)C3CC4CC(C3)CC2C4)nn1-c1ccc(C(=O)NCCNC(=O)[C@H](CCCCNC(=O)[C@H](CC(C)C)NC(=O)C2OC2C(=O)O)NC(=O)CN2CCN(CC(=O)[O-])CCN(CC(=O)[O-])CCN(CC(=O)[O-])CC2)cc1C(C)C.[177Lu+3]` (mixture of isomers) has a renal retention of 10.7 ± 1.6% (HT-29 xenograft mouse, kidney; 168 h; baseline: initial uptake).
`CC[C@H](C)[C@H](NC(=O)[C@H](CCC(N)=O)NC(=O)[C@@H](NC(=O)[C@@H]1CCCN1[C@@H]1CN(C(=O)[C@H](CCCCN)NC(=O)[C@H](CC(N)=O)NC(=O)[C@@H](NC(=O)[C@@H](NC(=O)[C@H](CCC(N)=O)NC(=O)[C@@H](N)C(C)C)[C@@H](C)CC)[C@@H](C)CC)CC[C@H]1NS(=O)(=O)c1ccc(C)cc1)C(C)C)C(=O)N[C@H](C(=O)N[C@@H](Cc1ccc(O)cc1)C(=O)N[C@@H](CCCCN)C(N)=O)C(C)C` — result for “random coil content”: 60.4% (CD spectroscopy; 20 mM phosphate buffer; 125 µM, 20 °C).
Under “procedure-related adverse events”, `CCC(C(=O)Nc1ccc(C(N)=O)c(F)c1)n1cc(OC)c(-c2cc(Cl)ccc2-n2cc(C(F)(F)F)nn2)cc1=O` (stereo not shown) is recorded as 6.7% (healthy male humans; 50 mg, IR formulation, fasted).
`N#C[C@@H]1CCCN1C(=O)CNC(=O)c1ccnc2ccc(OCCCN3CCN(C(=O)CCc4ccc5c(c4)CN4CCN(Cc6cc(CCC(=O)O)ccc6O)CC(=O)[O][Al-]([18F])([O]C(=O)C4)[O]5)CC3)cc12` (stereo partly shown) has a tumour-to-organ ratio of 1.49 ± 0.45 (BALB/c nude mice, U-87 MG tumour; 120 min post-injection; baseline: tumour over bone).
`CCC(CC)CNC(=N)NC(=N)NCCCCCCNC(=N)NC(=N)NCC(CC)CC` gave a half-life of 1.41 h (metabolic stability; monkey, liver microsomes; 2 µM).
`CC(C)(O)c1ccc(N2Cc3c(ccnc3-c3ccc(F)cc3OCC(F)(F)F)C2=O)cc1` has a concentration of 11300 ng/mL (male C57BL/6 mouse, plasma; oral, 100 mg/kg, 6 h).
`O=C([O-])CN1CCN(CC(=O)[O-])CCN(Cc2cccc(C(=O)[O-])n2)CC1.[44Sc+3]` gave a tracer uptake of 0.27 %ID/g (mouse, stomach; intravenous, 1 h).
The AUC(0-80 min) of `N=C(N)NCCC[C@@H]1NC(=O)[C@H](CO)NC(=O)[C@@H](NC(=O)[C@H](CO)NC(=O)[C@H](CO)NC(=O)[C@H](Cc2c[nH]c3ccccc23)NC(=O)CNC(=O)[C@H](CO)NC(=O)[C@@H](N)Cc2c[nH]c3ccccc23)CSSC[C@@H](C(=O)NCC(=O)O)NC(=O)[C@H](CO)NC1=O` is reported as 350 ng·h/mL (patients, plasma; intravenous, 5 mg/kg, thrice weekly, geometric mean).
Under “time plasma level above threshold”, `CC[C@H](C)/C=C/C=C/C=C/C(O)=C/C(=O)C(Cl)(Cl)Cl` is recorded as 15 min (C57BL/6 mice female, plasma; oral gavage, 25 mg/kg, threshold 1 µM).
With `CC(=O)N1CCN(C(=O)c2ccc(Nc3nccc(-c4ccc(Cl)cc4)n3)cc2)CC1` the logP was 4.11.
With `C=C[C@]1(C)C[C@@H](OC(=O)CSc2ccc(NC(=O)c3ccco3)cc2)[C@]2(C)[C@H](C)CC[C@]3(CCC(=O)[C@H]32)[C@@H](C)[C@@H]1O` the plasma concentration was 5440 ng/mL and 4920 ng/mL and 5400 ng/mL and 3100 ng/mL and 5560 ng/mL and 2760 ng/mL and 3150 ng/mL (Mycoplasma gallisepticum-infected chickens, plasma; intramuscular, 40 mg/kg, 1 h).
`Cc1cc(-c2ccc(C(=O)[C@@H]3CCCC[C@H]3C(=O)Nc3cnn4c3C(=O)NCC4)cc2)[nH]n1`: “cumulative radioactivity recovery” 74.4% and 81.3% and 75.8% and 85.4% and 75.9% (human, faeces; oral, 200 mg, 0-192 h; baseline: dose).
For `CCCCN1C(=O)c2cccc3c(NCCCCCCCCCCN4CCOCC4)ccc(c23)C1=O`, “fluorescence quantum yield” read 1.03 (toluene).
For `O=C(Nc1cnccc1-c1ccc([18F])nc1)c1ccnc(NC(=O)C2CC2)c1`, the SUV was 1.47 (FVB/NJ mice (both sexes), bladder; intravenous, dose not given, 120 min, added: tariquidar 15 mg/kg i.v. pre-dose).
For `C[N+](C)(CCOCCOCCOCCNC(=S)Nc1ccc(C[C@H]2CN(CC(=O)[O-])CCN(CC(=O)[O-])CCN2CC(=O)[O-])cc1)C[c-]1cccc1.[64Cu+2].[Fe+2].c1cc[cH-]c1`, “large intestine uptake” read 2.3 ± 0.3 %ID/g (nude mice, BxPC-3 xenograft, large intestine; 8 h, pretargeted, 144 h lag time).
With `C=CC(=O)Nc1cc(Nc2nccc(-c3c[nH]c4ccccc34)n2)c(OC)cc1N(C)CCN(C)C` the recovery was 82.4% (storage stability; human dried blood spot; 2 h, -80 °C, LLOQ level).
`CC(=O)N([O-])CCCCCNC(=O)CCC(=O)N([O-])CCCCCNC(=O)CCC(=O)N([O-])CCCCCN.[89Zr+4]` gave an intact complex of 92.2 ± 0.8% (radio-TLC; aqueous buffer; 7 d, pH 5, 37 °C, 89Zr-labelled complex, added: DTPA 100-fold excess).
For `CN(Cc1ccccc1)C(=O)CN1CCN(CC(=O)[O-])CCN(CC(=O)N(C)Cc2ccccc2)CC1.[18F-].[Sc+3]`, the tracer uptake was 0.03 %ID/g (mouse, brain; intravenous, 1 h).
`Cc1nn(-c2nc3c(F)cc(F)cc3s2)c(O)c1C(c1ccc(C(F)(F)F)cc1)c1c(C)nn(-c2nc3c(F)cc(F)cc3s2)c1O` gave a plasma concentration of 1130 ng/mL and 963 ng/mL (ICR mouse; intraperitoneal, 10 mg/kg, 8.00 h).
`CC(C)(O)c1ncc([S@](N)(=O)=NC(=O)Nc2c3c(cc4c2CCC4)CCC3)s1` — result for “subjects with adverse events”: 50% (item: general and administration-site disorders; healthy human volunteers; oral, 100 mg single dose, spray-dried dispersion).
The hepatocyte CLint of `CNc1cc(N)c(C(N)=O)cn1` is reported as < 1.3 µL/min/10⁶ cells (metabolic stability; male Wistar rat, hepatocytes; 1 µM, pH 7.4).
`CN(Cc1ccccc1)C(=O)CN1CCN(CC(=O)[O-])CCN(CC(=O)[O-])CC1.[18F-].[Sc+3]` gave a tracer uptake of 1.5 %ID/g (mouse, bone; intravenous, 1 h).
With `COc1cccc(OC)c1-c1cc(C(=O)NC2(C(=O)O)C3CC4CC(C3)CC2C4)nn1-c1ccc(C(=O)N(C)CCCN(C)CCCN(C)C(=O)[C@H](CCCCNC(=O)[C@H](CC(C)C)NC(=O)C2OC2C(=O)O)NC(=O)CN2CCN(CC(=O)[O-])CCN(CC(=O)[O-])CCN(CC(=O)[O-])CC2)cc1C(C)C.[177Lu+3]` (mixture of isomers) the tumour-to-muscle ratio was 9.55 (mouse, HT-29 xenograft; 4 h post injection, biodistribution; baseline: tumour over muscle uptake).
`COc1ccc2c(c1)C(C)(C)C(/C=C/C1=C(Oc3ccc(C(=O)NCCCCOc4cc(CN(Cc5ccccn5)Cc5ccccn5)cc(CN(Cc5ccccn5)Cc5ccccn5)c4)cc3)C(=C/C=C3/N(CCCCS(=O)(=O)[O-])c4ccc(OC)cc4C3(C)C)CCC1)=[N+]2CCCCS(=O)(=O)[O-].O=[N+]([O-])[O-].O=[N+]([O-])[O-].[99Tc+].[C-]#[O+].[C-]#[O+].[C-]#[O+].[Zn+2]` gave an intact compound of 98.7% (radio-TLC; mouse serum; 2 h, 37 °C).
With `Oc1ccc([C@@H]2Oc3ccc(O)cc3[C@@H]3CCC[C@@H]32)cc1` the CL/F was 0.1 L/h (mouse, plasma; intravenous, 1 mg/kg).
With `CCCC[C@H](OC(C)=O)c1ccccc1C(=O)O` the AUC(0-t) was 18300 ± 2220 ng·h/mL (Sprague-Dawley rats, both sexes, whole blood; intravenous, 20 mg/kg single dose).
For `CC(C)(C)NC(=O)c1ccccc1`, the logP was 2.01 (water; 24 h).
For `COc1ccc(Nc2nc(Nc3ccc(OCCOCCOCC[18F])cc3)ncc2Br)cc1`, the uptake ratio was 1.46 (ICR mice, S180 tumour; intravenous, 370 kBq, 120 min; baseline: tumour over muscle).
The t1/2 of `C/C(N)=N/C(=N\S(=O)(=O)c1ccc(C(F)(F)F)cc1)N1C[C@H](c2ccccc2)C(c2ccc(Cl)cc2)=N1` is reported as 3.7 h (C57BL/6 mouse, adipose tissue; intravenous, 10 mg/kg).
`CC[C@H](C)[C@@H]1NC(=O)[C@H](Cc2ccc(O)cc2)NC(=O)CCCSC[C@@H](C(=O)N(CC(=O)N[C@@H](CC(C)C)C(=O)NCC(N)=O)Cc2ccc(F)cc2)NC(=O)[C@H](CC(N)=O)NC(=O)[C@H](CCC(N)=O)NC1=O`: “severe adverse events” 0% (human; intranasal, 50 µg single dose).
`O=C([O-])CN1CCN(CC(=O)[O-])CCN(CC(=O)[O-])CC1.[44Sc+3]` gave a tracer uptake of 0.8 %ID/g (mouse, stomach; intravenous, 1 h).
`CC[C@H](C)[C@@H](C(=O)N[C@@H](CC(C)C)C(=O)N[C@@H](CO)C(=O)N[C@@H](CO)C(=O)N[C@H](C(=O)N[C@@H](CC(N)=O)C(=O)N[C@H](C(=O)NCC(=O)N[C@@H](CO)C(=O)N[C@@H](CC(N)=O)C(=O)N[C@H](C(=O)N1CCC[C@H]1C(N)=O)[C@@H](C)O)C(C)C)[C@@H](C)O)N(C)C(=O)[C@H](C)NC(=O)CN(C)C(=O)[C@H](Cc1ccccc1)NC(=O)[C@H](CC(N)=O)NC(=O)[C@H](CC(N)=O)NC(=O)[C@H](CO)NC(=O)[C@H](CO)NC(=O)[C@H](Cc1c[nH]cn1)NC(=O)[C@H](Cc1c[nH]cn1)NC(=O)[C@H](CC(C)C)NC(=O)[C@H](Cc1ccccc1)NC(=O)[C@H](CCC(=O)O)NC(=O)[C@H](C)NC(=O)[C@H](CC(C)C)NC(=O)[C@H](CCCNC(=N)N)NC(=O)[C@H](CCC(N)=O)NC(=O)[C@@H](NC(=O)[C@H](C)NC(=O)[C@@H]1CSSC[C@H](NC(=O)[C@H](CCCNC(=N)N)NC(=O)CC[C@H](NC(=O)CCCCCCCCCCCCCCCCCCC(=O)O)C(=O)O)C(=O)N[C@@H](CC(N)=O)C(=O)N[C@@H]([C@@H](C)O)C(=O)N[C@@H](C)C(=O)N[C@@H]([C@@H](C)O)C(=O)N1)[C@@H](C)O`: “main peak area remaining” 64% (RP-HPLC; water; 1.0 mg/mL, 7 days, pH 7.5, 40 °C).
With `CN(Cc1ccccc1)C(=O)CN1CCN(CC(=O)N(C)Cc2ccccc2)CCN(Cc2cccc(C(=O)[O-])n2)CC1.[44Sc+3]` the tracer uptake was 2.72 %ID/g (mouse, kidney; intravenous, 1 h).
`O=C(Nc1cnccc1-c1ccc([18F])cc1)c1ccnc(NC(=O)C2CC2)c1` has a mean SUV of 4.82 (ex vivo gamma counting; FVB/NJ mice, both sexes, cecum; intravenous, 120 min).
`C=C(NC(=O)c1csc(-c2nc3c(cc2O)-c2nc(cs2)C(=O)NC(C(C)O)C(=O)NC(=C(C)OC)c2nc(cs2)C(=O)NC2c4nc(cs4)C(=O)NC(COC(=O)c4c5c6c(cccc6n4O)COC(=O)C(OC4CC(C)(O)C(N(C)C)C(C)O4)C2OC5)c2nc-3cs2)n1)C(N)=O` (stereo not shown) has a Cmax of 58.9 ng/mL (ICR mice, Streptococcus pneumoniae ATCC 49169 infected, immunocompromised, blood; intravenous, 2 mg/kg/day once daily).
`COc1cccc(OC)c1-c1cc(C(=O)NC2(C(=O)O)C3CC4CC(C3)CC2C4)nn1-c1ccc(C(=O)N(C)CCCN(C)C(=O)[C@H](CCCCNC(=O)[C@H](CC(C)C)NC(=O)C2OC2C(=O)O)NC(=O)CN2CCN(CC(=O)[O-])CCN(CC(=O)[O-])CCN(CC(=O)[O-])CC2)cc1C(C)C.[177Lu+3]` (mixture of isomers) has a renal retention of 12 ± 8% (HT-29 xenograft mouse, kidney; 168 h; baseline: initial uptake).
`CCCCN1C(=O)c2cccc3c(NCCN4CCOCC4)ccc(c23)C1=O`: “fluorescence quantum yield” 0.09 (ethyl acetate).
The tracer uptake of `CN(Cc1ccccc1)C(=O)CN1CCN(CC(=O)[O-])CCN(Cc2cccc(C(=O)[O-])n2)CC1.[18F-].[Sc+3]` is reported as 0.85 %ID/g (mouse, liver; intravenous, 1 h).
The intact complex of `CN([O-])C(=O)CN1CCN(CC(=O)N(C)[O-])CCN(CC(=O)N(C)[O-])CC1.[89Zr+4]` is reported as 100% (radio-TLC; human serum; 2 days, run 2).
`Cc1ncc2c(n1)CN(C(=O)Nc1nc(-c3cccs3)ccc1N)C2`: “unbound brain Cmax” 86 ng/mL (C57BL/6 mice, brain; oral, 10 mg/kg).

Repeated from above:
`COc1cccc(OC)c1-c1cc(C(=O)NC2(C(=O)O)C3CC4CC(C3)CC2C4)nn1-c1ccc(C(=O)N(C)CCCN(C)C(=O)[C@H](CCCCNC(=O)[C@H](CC(C)C)NC(=O)C2OC2C(=O)O)NC(=O)CN2CCN(CC(=O)[O-])CCN(CC(=O)[O-])CCN(CC(=O)[O-])CC2)cc1C(C)C.[177Lu+3]` (mixture of isomers) has a renal retention of 12 ± 8% (HT-29 xenograft mouse, kidney; 168 h; baseline: initial uptake).
`CCCCN1C(=O)c2cccc3c(NCCN4CCOCC4)ccc(c23)C1=O`: “fluorescence quantum yield” 0.09 (ethyl acetate).
The tracer uptake of `CN(Cc1ccccc1)C(=O)CN1CCN(CC(=O)[O-])CCN(Cc2cccc(C(=O)[O-])n2)CC1.[18F-].[Sc+3]` is reported as 0.85 %ID/g (mouse, liver; intravenous, 1 h).
